Measured values from different studies.
Every numbered part comes from another study and shows a few of its results, in no order.

Block 1
Target: Histone acetyltransferase KAT6A, winged helix 1, GST fusion (KAT6A, Homo sapiens, UniProt Q92794, residues 1-85)
Method: protein binding microarray
Molecule type: double-stranded DNA, one strand shown
Sample: in vitro
Tested at: not given
Setting: 8-mer, flanks averaged, mean of 2 arrays, mostly near background
Baseline: not given
Reading: higher = stronger binding
Target sequence (chain): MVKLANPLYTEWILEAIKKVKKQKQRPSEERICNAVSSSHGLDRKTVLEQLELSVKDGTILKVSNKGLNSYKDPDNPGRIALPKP
| Sequence | E-score |
| --- | --- |
| ACATCAGA | -0.14 |
| ATGGCCTA | 0.0753 |
| GATGACCC | -0.164 |
| CGACGGAC | 0.382 |
| CGAGCCCA | -0.184 |
| GAGGCAGA | -0.183 |
| CATAATTA | -0.114 |
| GACAGCAC | 0.0174 |
| AGCTCGGC | 0.268 |
| TAACCGTA | 0.247 |
| AAGGGAAG | -0.0481 |
| ATAACAGA | -0.145 |
| ACTCGCAA | -0.131 |
| CAGATGAG | -0.28 |
| CTCAGCAG | -0.244 |
| CCTTCCCG | 0.243 |
| AGCTCTCA | -0.141 |
| CTAATGAC | -0.201 |
| GCAGAGGC | 0.013 |
| CAAAGTAC | -0.211 |
| ACAGACGG | 0.057 |
| CCTTTGCC | -0.0328 |
| GCAGTCAA | -0.063 |
| AGATACAC | -0.0408 |
| TAAAGATA | -0.0993 |

Block 2
Target: RING finger protein unkempt homolog, zinc fingers 1-6, GST-SBP tag (UNK, Homo sapiens, UniProt Q9C0B0, residues 30-357)
Sequence of UniProt Q9C0B0 (30-357, looked up): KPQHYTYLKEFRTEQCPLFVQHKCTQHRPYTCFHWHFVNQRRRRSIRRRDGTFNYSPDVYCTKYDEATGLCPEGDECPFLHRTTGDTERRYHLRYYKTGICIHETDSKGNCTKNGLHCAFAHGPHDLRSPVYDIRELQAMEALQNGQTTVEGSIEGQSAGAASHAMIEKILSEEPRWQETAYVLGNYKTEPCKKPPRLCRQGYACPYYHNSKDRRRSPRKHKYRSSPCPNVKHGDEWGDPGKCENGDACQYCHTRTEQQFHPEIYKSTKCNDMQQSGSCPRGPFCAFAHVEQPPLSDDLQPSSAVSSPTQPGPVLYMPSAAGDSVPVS
Method: RNA Bind-n-Seq
Molecule type: RNA
Sample: in vitro
Tested at: not given
Setting: RNA with constant flanks, ends assumed
Baseline: input RNA pool
Reading: higher = stronger binding
| Sequence | bound/input enrichment [ratio] |
| --- | --- |
| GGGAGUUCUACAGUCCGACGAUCGAGGCAGCUGCUCAGCUCCUGGAAUCUUCAGUUCAAAACCUUUUUAAGCAGGUAGAUUUAACCGACCCCGUACGCUGGAAGAUUUUAAAAGAUAAACAUAUCCCUCAAUUUUUACAAGAACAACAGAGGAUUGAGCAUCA | 0.525 |
| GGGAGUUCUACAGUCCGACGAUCCUGACCGGCGGGUCCCAGAGACCUGCCCCCAAGGUGUCCCACUGUGUGGCUAAGGGUGGGACCGAACCCGGGCUGGGAGAGCCGGGUUAUGGGUUCCAGUGGUGGUUCCGCCGCUUCCUUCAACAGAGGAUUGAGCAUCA | 0.18 |
| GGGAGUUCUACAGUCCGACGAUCCACUUGUAUGAAAUAUUCCCUGCAGAGUGAGCAGGAAAUAGGAACAAAGGAAUGGAAUGCUCCGUGGUGGUGGGGGUGCUAUGGGGGGUGGGUGGGAGAGUUGCAGACUUGAGGAGGUUUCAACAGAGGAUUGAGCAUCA | 1.92 |
| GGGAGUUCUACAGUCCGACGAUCAGUCUGGCCGUACCACUGUGGCUGCUGGCAGCAUCUCUGCUCUGCCUUCUCAGCAAAUGUUAACCGAAUAAAAAUUUAAAAAUAAUUUAAAAAACACACAAAAAUGCGUCACACAGAAUACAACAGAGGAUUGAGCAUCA | 0.711 |
| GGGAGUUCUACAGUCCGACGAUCUGGUUGCUCCUUUGUCAAACUGGGAUGAAAGCAAUGGCUAUUCCUCUGUUCUUUCAGACCGUAAUGGGAGCUUUUACUGGCUUACAUCAUUACAAUAUAUGUGAAAAACCACGUGCAAGGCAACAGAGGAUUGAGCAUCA | 0.147 |
| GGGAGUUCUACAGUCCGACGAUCGGGCCGCAGACACGUAGGCUGGGGUGAGGAGUGUCUGCUGUCACCCUCUACUCUCCAGCUUCCGUCUUAUAAAUGUAGUGAUAGGAUUCCUUGUUGCUUGGUCCCCAAAGCCUUAUACUUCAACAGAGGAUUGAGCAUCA | 0.18 |
| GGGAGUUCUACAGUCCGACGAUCAACCAUCCAGGCCAAAUCAGUGCUGGCUACGCUCCUGUUCUGGAUUGUCACACAGCCCACACCGCAUGCAAGUUUGCUGAGCUUAAAGAAAAGAUCGAUCGUCGUUCUGGUAAGAAGCUGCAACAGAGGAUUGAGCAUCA | 0.356 |
| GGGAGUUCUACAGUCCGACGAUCUAUGAGACAGUGGUUGGCCCUGGGGAUGUUCUUUACAUCCCAAUGUACUGGUGGCACCAUACCGAGUCAUUACUAAAUGGGGGAAUUACCAUCACUGUGAACUUCUGGUAUAAGGGGGCUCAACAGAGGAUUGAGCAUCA | 0.206 |
| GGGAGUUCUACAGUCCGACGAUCCAAACGUUGUUGGGAAUAAUUGUGAGGAUGAAGUUUUUGCUGCUGCAGCAGAAGUACCCCGAAUACCUGGAGGAUGGCAAGGUCCUGGAGGCACUUCAAGUUCUACGCUGUGAAUUGACGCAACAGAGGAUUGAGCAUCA | 0.313 |
| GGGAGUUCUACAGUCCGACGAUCGAUUCAUUGCCUGCUUUACUGGAAUUCUACAAAAUACACUAUUUGGACACUACAACGUUGACCGAACCAGUUUCCAGAUCCAGGCAGGGUAGUGGAGUGAUUCUCAGGCAGGAGGAGGCGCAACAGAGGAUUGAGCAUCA | 0.338 |
| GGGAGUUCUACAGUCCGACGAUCGGGAGCGCCAUCAGAACCCAGGGAAUCUUUCUGAAGCCACACUCAUCUGACACACGUACACUCCGACCUGUCUCUUCUUUUGCUUUUCAAUUUUGGAAAGGGAUCUCUGUCCAGGUCAGCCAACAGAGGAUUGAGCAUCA | 0.106 |

Block 3
Target: RNA binding protein fox-1 homolog 2, RRM domain, GST-SBP tag (RBFOX2, Homo sapiens, UniProt O43251-10, residues 100-194)
Method: RNA Bind-n-Seq
Molecule type: RNA
Sample: in vitro
Tested at: 365 nM
Setting: natural RNA segment, single round, ends assumed
Baseline: no-protein control
Reading: higher = stronger binding
Target sequence (chain): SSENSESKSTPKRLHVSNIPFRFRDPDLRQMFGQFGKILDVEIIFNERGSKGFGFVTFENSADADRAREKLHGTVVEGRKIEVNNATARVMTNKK
| Sequence | RBNS enrichment (R) |
| --- | --- |
| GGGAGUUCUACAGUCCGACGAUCACUGGCCACCCCCUGCUUCCCAGAGUGAAACCUUGUGCCUGGUGACCAAAGUCCCUCCAAAGUGCUCUUCCUUCUGGGUUAUUCAAGCCAAAUAUCUGGGUUUCCCCCUCUGGAAUUCUCGGGUGCCAA | 0.36 |
| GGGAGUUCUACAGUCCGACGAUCGUGCAUCCCUGUGUUGAUAGCUCCUGCUUCGGUAGGGAACUCUGAGAUCCUGCUUCCAUCUCCAGCUUCUAGCACUCUCCUAGAGAGGGACAGACUGGAGCCAUGGCCUUUGGAAUUCUCGGGUGCCAA | 0.301 |
| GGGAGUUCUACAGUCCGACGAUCGGGGAUAGGGUGUCCUUGGGAACAAUGGAUCCCAGCUUAGCCCCAAAGACCAACCAAAGAGCCAGCCAGAGUAAGCUGGACCUGCAACCUGCCUGAGCCCCGUGGCCUCUUGGAAUUCUCGGGUGCCAA | 0.708 |
| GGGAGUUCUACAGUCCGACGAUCAAUGACAAGUGAAUCAUAUUGACAUUUUACAAUCUUAGAUUUUUCUUUUUUUUUCUUUUGAGACAGGGUCUUGAUCCGUCGCCCAGGCGGGAGUUGCAGUAGCAUGAUCAUGGAAUUCUCGGGUGCCAA | 12.5 |
| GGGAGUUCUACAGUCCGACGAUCAGGGUCAAAGUGUCUCACCACAAACAAAGGUAUCAAAUCACAAGCCUGGCUGGCUGAGGUGGUGUGAUAGAGGUCUGUGGUAAACAGCAGAACUUAGGGUGCAGACUGACUGGAAUUCUCGGGUGCCAA | 0.256 |
| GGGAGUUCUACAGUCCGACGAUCAAGCAUGAUAAUCCUUUUUUUUGCAAGUGUAAACGACAGUCUGGACUCUUAACUUCUUAGUGCCUCAGUUUUCCUUUGGGGUAUACUUCACAAGGUAUCAGAAGUACUUUUGGAAUUCUCGGGUGCCAA | 1.18 |
| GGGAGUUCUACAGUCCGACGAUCAAUAAAUCAAAUUGGAAGAAAUUGGUAAAAGGCAUUUUAGUAAUAUUGGAACUUUUUGAAGUGUGUGGGACUAUGAGAAGAAUUUCUUACUAACAUUUCCAAUAUCUGUAUGGAAUUCUCGGGUGCCAA | 0.609 |
| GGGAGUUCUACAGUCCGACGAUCUAAGACAGCCGCUCCUUGGACACUCGGCUGGAAGUCUUUAGUGUGUUCCUCCAUACUACUGAAGCCCACCCACAUCCAAGAUCCCUUAUGUAAAAACUGUCUGCAAGGACUGGAAUUCUCGGGUGCCAA | 0.276 |
| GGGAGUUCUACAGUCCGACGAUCGCCCUGCACUUUGCAUAUCUGUAUAGAAAAUCAAGUCAAUCCCCCAUCCUCACACCCACUCAUCUCUGAGGAGCUAUGAACUGGUUUUGGUCCCUCUAAUGAUCCUCCAGUGGAAUUCUCGGGUGCCAA | 1.13 |
| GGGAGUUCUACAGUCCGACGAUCCACUGGGUUCUGCAGCACUGGAGUUUCCAUGACCGCUCCCACAUCACCCCACCCUCGACUCUGGCACCAGUAUGGUUCUAUGCAUGUUGCAGCUCUCUGGGCUGUGACUCUGGAAUUCUCGGGUGCCAA | 0.604 |
| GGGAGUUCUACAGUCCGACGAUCAACCCAUACCCAGCAUCCCUCCCCUGCCCUGGCCCUCGGCUGUGUAUUUAUAGAUGGAAAUAUACUUUAUAUUUUGUAUCAUUGUGCCUAUAGCCUCUGCCACCUUGUAUUGGAAUUCUCGGGUGCCAA | 0.621 |
| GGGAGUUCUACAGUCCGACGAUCGUGUAAUCUUUUACCUUUUUAAAAACCAAGAUAGAGUAUCUAUUAGAGUUUUACAUUGUUGAUGAUAGAUUAACAAUAAAGUGAUGUUCUGGUGGAGGUAGACUGAAAUUUGGAAUUCUCGGGUGCCAA | 0.361 |

Block 4
Target: Interferon regulatory factor 5, full length, phosphomimetic (IRF5, Homo sapiens, UniProt Q13568-2, residues 1-514, S451D/S453D/S456D/S462D)
Method: protein-binding microarray
Molecule type: double-stranded DNA, one strand shown
Sample: in vitro
Tested at: 940 nM top
Setting: 60-bp whole probe
Added: salmon DNA 0.4 mg/ml
Baseline: random background probes
Reading: higher = stronger binding
Constant ends, left off below: GCCTAGCAC … GTCTTGATTCGCTTGACGCTGCTG
| Sequence | fitted relative affinity [z-score] |
| --- | --- |
| GACGAACTGGGGACTGGAGACGTGCTA | 0.0364 |
| TCACATGTGGGTTCCATACTGTGCTAG | 0.0335 |
| CTTCATGTTTTTTTCTACTTGTGCTAG | 1.54 |
| GACAGTTTCGACTTTCGGGACGTGCTA | 8.28 |
| TTAGGATTCGGGTATCGGTTAGTGCTA | 3.42 |
| TTAGGTATCGACACAGGGTTAGTGCTA | 5.37 |
| GACGGTTTACTTCTCCTGACGTGCTAG | 0.508 |
| GAGTGCTGGGATTACAGGCAGTGCTAG | -0.474 |
| TGGCCTATTTATATGAGATGGTGCTAG | -0.179 |
| GACGAACTCAGACTGGAGACGTGCTAG | -0.557 |
| TTAGAACTGAAACTGGATTAGTGCTAG | 0.831 |
| TTAGGTCTCGGACTGCGTTAGTGCTAG | 0.877 |
| GACGGTTCCCTTTTCGTGACGTGCTAG | 0.844 |
| TTAGAACGGGGGTTTCGATTAGTGCTA | 9.9 |
| GACGAACTGGGGTTTCTAGACGTGCTA | 0.323 |
| TTATGTATCGGTTTCGGTTAGTGCTAG | 10.1 |
| GACCGTTTCGGTTTCGGGACGTGCTAG | 9.38 |
| GACGAACTGAGTTTTGAGACGTGCTAG | -0.11 |
| GACGGTTTCGCTATCGGGACGTGCTAG | 7.92 |
| TCAAGGATGGTTTTCAGACTGTGCTAG | -0.535 |
| TCATGTATATATGTGTAACTGTGCTAG | -0.188 |
| GACGAACTGGGGTTTCCAGACGTGCTA | -0.207 |

Some of these lines once more (block 4):
| Sequence | fitted relative affinity [z-score] |
| --- | --- |
| GACCGTTTCGGTTTCGGGACGTGCTAG | 9.38 |
| GACGAACTGAGTTTTGAGACGTGCTAG | -0.11 |
| GACGGTTTCGCTATCGGGACGTGCTAG | 7.92 |
| TCAAGGATGGTTTTCAGACTGTGCTAG | -0.535 |
| TCATGTATATATGTGTAACTGTGCTAG | -0.188 |
